Experimental data collected from several papers.
Parts stem from different laboratories: compare values within a part only. Positions count from the first letter of the parent shown.

Study 1 — method: protein binding microarray; form: double-stranded DNA, one strand shown; medium: in vitro; concentration: not given; baseline: not given; reading: higher = stronger binding
Target: Histone acetyltransferase KAT6A, both winged helices, GST fusion (KAT6A, Homo sapiens, UniProt Q92794, residues 1-181)
Notes: 8-mer, flanks averaged, mean of 2 arrays, mostly near background
Target sequence (chain): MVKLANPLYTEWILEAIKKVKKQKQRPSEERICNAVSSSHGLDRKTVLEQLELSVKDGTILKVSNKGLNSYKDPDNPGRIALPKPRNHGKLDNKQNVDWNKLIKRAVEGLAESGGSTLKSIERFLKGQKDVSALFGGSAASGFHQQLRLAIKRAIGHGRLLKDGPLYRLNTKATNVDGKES
| Oligonucleotide | E-score |
| --- | --- |
| ATTACTAC | -0.0473 |
| ACTAAGTC | -0.125 |
| GCGGCGGA | 0.357 |
| ACAGACGC | 0.123 |
| AGGACGAG | -0.183 |
| AGTTAAAG | -0.0864 |
| CGAATTCA | 0.0737 |
| ACTGTTCC | -0.00939 |
| ACGGTCAT | 0.215 |
| ATCGTTTG | -0.0204 |
| ACACATGT | -0.002 |

Study 2 — method: DHFR PCA, deep sequencing; medium: yeast; with: (+)-ABA 2500 µM; baseline: wild-type fitted maximum; reading: higher = stronger binding
Target: ABI1, truncated, D143A, DHFR fusion (Arabidopsis thaliana)
Notes: methotrexate growth selection, single substitutions
Parent: PYL1, truncated, DHFR fusion (Arabidopsis thaliana); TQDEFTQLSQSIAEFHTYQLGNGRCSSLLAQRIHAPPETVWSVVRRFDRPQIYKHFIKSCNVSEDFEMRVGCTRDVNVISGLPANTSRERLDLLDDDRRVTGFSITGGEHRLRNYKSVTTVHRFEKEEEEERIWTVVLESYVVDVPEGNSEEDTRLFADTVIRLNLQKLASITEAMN; partner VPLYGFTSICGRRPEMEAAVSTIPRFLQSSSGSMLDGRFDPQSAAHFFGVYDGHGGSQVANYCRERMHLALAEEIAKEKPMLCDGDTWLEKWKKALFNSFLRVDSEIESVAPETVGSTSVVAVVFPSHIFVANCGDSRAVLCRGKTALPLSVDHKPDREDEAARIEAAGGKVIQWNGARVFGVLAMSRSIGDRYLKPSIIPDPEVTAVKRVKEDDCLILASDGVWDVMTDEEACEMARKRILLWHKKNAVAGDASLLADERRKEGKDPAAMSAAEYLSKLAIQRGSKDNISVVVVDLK
| Variant | relative binding score |
| --- | --- |
| R99Y | 106% |
| G81R | 66.3% |
| R24L | 96.4% |
| R132Q | 109% |
| R24K | 97.6% |
| E4I | 103% |
| L93G | 79.1% |
| D153P | 19.3% |
| L164Q | 98.7% |
| P146H | 71.9% |

Study 3 — method: RNA Bind-n-Seq; form: RNA; medium: in vitro; concentration: 200 nM; notes: whole 134-nt RNA, ends assumed; with: 150 mM KCl; baseline: input library; reading: higher = stronger binding
Target: Ras GTPase-activating protein-binding protein 1, full length (G3BP1, Homo sapiens, UniProt Q13283)
Sequence of UniProt Q13283 (whole entry, looked up): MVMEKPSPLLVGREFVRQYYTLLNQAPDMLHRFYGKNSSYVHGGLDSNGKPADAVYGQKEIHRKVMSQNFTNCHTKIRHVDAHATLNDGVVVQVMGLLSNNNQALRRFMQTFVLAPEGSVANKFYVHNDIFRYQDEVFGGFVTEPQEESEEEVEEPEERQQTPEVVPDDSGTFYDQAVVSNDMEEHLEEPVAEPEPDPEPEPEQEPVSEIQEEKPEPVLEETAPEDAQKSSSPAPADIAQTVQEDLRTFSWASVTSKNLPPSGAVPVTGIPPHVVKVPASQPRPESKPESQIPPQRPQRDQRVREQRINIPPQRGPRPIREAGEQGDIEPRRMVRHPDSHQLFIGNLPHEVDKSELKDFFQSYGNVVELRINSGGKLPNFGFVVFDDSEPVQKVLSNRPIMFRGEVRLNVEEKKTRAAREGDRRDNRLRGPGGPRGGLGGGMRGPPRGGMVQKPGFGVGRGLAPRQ
All sequences stand within: GGGAGUUCUACAGUCCGACGAUC … UGGAAUUCUCGGGUGUCAAGG
| Oligonucleotide | log2 enrichment |
| --- | --- |
| CCUGUGCUACACAUCGUAUGUACCGAAUCGGUUUUUUGGGUUUUUUGGGGUUUUUUGGGGAAAGUAUUAUGUUACGCCGUUCGGAUCUGC | -0.933 |
| ACCAUGCAGGAGGGCAUCUUUGGGAAGUGGGGCAAGGGGGGGAUAGGGAGGGGGGUAACACUUUGGGAACAGGUGGUCCCAGGUCGUUUC | 1.52 |
| UCCUGUGCUACACAUCGUAUGUACCGAAUCGGCCCCCGGGGCCCCCGGGGCCCCCGGGGAAAGUAUUAUGUUACGCCGUUCGGAUCUGCA | -1.11 |
| UCCUGUGCUACACAUCGUAUGUACCGAAUCGGGGAAAAAAAGGGGUGGGGUUUUUGGGGAAAGUAUUAUGUUACGCCGUUCGGAUCUGCA | 0.595 |
| AGUCCUGUGCUACACAUCGUAUGUACCGAAUCGGGGAAAAAGGGGUUUGGGGUGGGGAAAGUAUUAUGUUACGCCGUUCGGAUCUGCACU | 0.618 |
| UGGCCCUGGUGGCAUGCGGGGAGGAAGAGGUGGCCUCAUGGAUCGUGGUGGUCCCGGUGGAAUGAUCAGAGGUGGCCGUGGUGGAGACAG | 0.353 |
| AGUCCUGUGCUACACAUCGUAUGUACCGAAUCGGGCCCCCGGGCCCCCGGGCCCCCGGAAAGUAUUAUGUUACGCCGUUCGGAUCUGCAC | -1.04 |
| CCUGUGCUACACAUCGUAUGUACCGAAUCGGGGAAAAAGGGGUUUUUUUGGGGAAAGGGGAAAGUAUUAUGUUACGCCGUUCGGAUCUGC | 0.402 |
| UCCUCAAGUCCUGUGCUACACAUCGUAUGUACCGAAUCGGGGCGGCGGGCGGAAAGUAUUAUGUUACGCCGUUCGGAUCUGCACUUCCAG | 0.0871 |
| GUCCUGUGCUACACAUCGUAUGUACCGAAUCGGAAAAAGGGAAAAAGGGGAAAAAGGGAAAGUAUUAUGUUACGCCGUUCGGAUCUGCAC | -0.436 |

Study 4 — method: RNAcompete; form: RNA; medium: in vitro; concentration: 20 nM; notes: 7-mer, probes averaged, single round; baseline: mean of 7-mers; reading: higher = stronger binding
Target: PABPC1L2, full length, GST fusion (mouse, UniProt A0ABA7IW68)
| Oligonucleotide | 7-mer Z-score |
| --- | --- |
| UAGGCAU | 0.0279 |
| UUGGUCA | -0.108 |
| CAACGGA | 0.0913 |
| CCCGUCC | -0.467 |
| CUCAGCG | -0.26 |
| UGGCUCC | -0.106 |
| AUAGCCA | -0.0101 |
| ACCGCUA | -0.0935 |
| CCAGUAA | 0.0841 |
| CGCGGUG | 0.133 |
| UCUUAUA | -0.289 |
| UAGUUUA | -0.322 |
| AGCCACA | -0.106 |
| CACAACU | -0.13 |
| GAGGAAG | 0.184 |
| UGGGUUA | -0.0337 |
| GGAUAGU | -0.124 |
| CGGACGG | 0.00798 |
| UACAUAU | -0.0772 |

Study 5 — method: universal PBM; form: double-stranded DNA, one strand shown; medium: in vitro; concentration: not given; reading: higher = stronger binding
Target: Sal-like protein 4, full length isoform B (SALL4, Homo sapiens, UniProt Q9UJQ4-2, residues 1-616)
Notes: 8-mer, flanks averaged, mean of replicates
| Oligonucleotide | E-score |
| --- | --- |
| TACACAGA | 0.227 |
| CGATCAAG | -0.0472 |
| AGCTCTCA | -0.183 |
| AAATACGT | 0.155 |
| GACTTCCA | -0.114 |
| AAGGGGGT | -0.14 |
| ACTTAATC | 0.196 |
| CGTCAGCA | -0.0763 |
| AAGGGCCC | -0.233 |
| CCGGTTAG | -0.255 |
| ATTCTCAA | 0.197 |

Study 6 — method: competition protein-binding microarray; form: double-stranded DNA, one strand shown; medium: in vitro; concentration: 2 µM; with: Cbf1 competitor, 0.05 µM; reading: higher = stronger binding; all sequences stand within: … GTCTTGATTCGCTTGACGCTGCTG
Target: Phosphate system positive regulatory protein PHO4, full length, GST-tagged (PHO4, Saccharomyces cerevisiae, UniProt P07270, residues 1-312)
Notes: whole 60-bp probe, lowest competitor level
Residues (chain): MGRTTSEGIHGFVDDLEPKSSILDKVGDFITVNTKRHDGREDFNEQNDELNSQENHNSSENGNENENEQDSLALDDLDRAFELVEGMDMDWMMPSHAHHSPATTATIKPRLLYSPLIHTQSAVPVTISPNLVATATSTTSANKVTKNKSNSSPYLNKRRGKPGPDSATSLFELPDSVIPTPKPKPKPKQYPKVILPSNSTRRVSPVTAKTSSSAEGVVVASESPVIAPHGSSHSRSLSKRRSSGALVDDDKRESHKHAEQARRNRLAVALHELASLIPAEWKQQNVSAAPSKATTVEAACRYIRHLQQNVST
| Oligonucleotide | fluorescence intensity |
| --- | --- |
| ACCAGTAAACTCTGTCATGTGACGGTGGGTGTTGGA | 7640 a.u. |
| GTCTTGTCTCATTGTTCCGTGGGTGTCCCCACTTCA | 4840 a.u. |
| CAAGTTTGTTTGCTTTTCGTGCAAAATATTAAATAG | 4880 a.u. |
| CGGGGTTAAGTTTTTCACGTGAAATGCTTGCAGCAG | 8010 a.u. |
| AAAGCGGTAATTTTTCACGTGCCCTCACATATCTAT | 14700 a.u. |
| ATTTCGGGGCGGGTCCCCGTGGTGACGCTGGTGACG | 8720 a.u. |
| TGCGCAACAACTTGTCAGGTGGGTGTATGTCTAGAA | 6280 a.u. |
| AAAGCGGTAATTTGGATCGTGGGTGCAGATATCTAT | 10100 a.u. |
| GAGCAGCGCCCATACAATGTGCGGGCAAGATTTGCC | 6340 a.u. |
| GAAGCATGCTGTCCTCACGGGAATTATATTGTGTGA | 7980 a.u. |
| GGGAGGGAAGACTGGAACGTGCAAAGAAGCTATTCG | 12600 a.u. |
| AGTCGTTTGAGGGCAAACGTGTGAAAATCTCCGGAA | 8300 a.u. |
| AAACTGGCAGCGATATGCATGACAGTGGGGAAAGTA | 6470 a.u. |
| CGTCCTAGTGATTGTCACTACACTTCCATGAGGAAG | 3980 a.u. |
| CTTTCCCGATCTTGACACGTGTTTTTAGCACATTTG | 16200 a.u. |
| GGGACTAGGGGATTGCATGTGCGGGGCAGGGGCACT | 8400 a.u. |
| CTAACGAAGGTTTGTCACATCACTTACAAGCCAAGT | 3300 a.u. |

Repeated from above (study 2):
| Variant | relative binding score |
| --- | --- |
| L164Q | 98.7% |
| R132Q | 109% |
| G81R | 66.3% |
| P146H | 71.9% |
| R24L | 96.4% |
| L93G | 79.1% |
| D153P | 19.3% |
| E4I | 103% |
| R24K | 97.6% |
| R99Y | 106% |
